{"data": "Measured values of several laboratories", "note": "Every numbered part comes from another study and shows a few of its results, in no order."}
{"data": "Series 1", "target": "RNA binding protein fox-1 homolog 2, RRM domain, GST-SBP tag (RBFOX2, Homo sapiens, UniProt O43251-10, residues 100-194)", "technique": "RNA Bind-n-Seq", "molecule type": "RNA", "matrix": "in vitro", "tested at": "365 nM", "setting": "natural RNA segment, single round, ends assumed", "baseline": "no-protein control", "reading": "higher = stronger binding", "all sequences stand within": "GGGAGUUCUACAGUCCGACGAUC … UGGAAUUCUCGGGUGCCAA"}
{"Strand": "CUCAUCCAGACAAGCUGACCUUUGAGUUAAUUUCAGCACAACUCAUUCUUCAGUGCCUCAUGACUGAAAACAAAAAACAAAAAAACGAAAGCAUCUUCACAAUGAAGCUU", "RBNS enrichment (R)": 0.428}
{"Strand": "CAAGGACGUUAAAGGCAUUUUAUUCCAGCGUCUUCUAGAGAGCUUAGUGUAUACAGAUGAGGGUGUCCGCUGCUGCUUUCCUUCGGAAUCCAGUGCUUCCACAGAGAUUA", "RBNS enrichment (R)": 0.738}
{"Strand": "AUUUGUAUAGCAUUUUUACACCUUUAUUGAGUAAUCUGGUUUCGAAAGGAGGUGAGAGUUUAGUCCCUUCUGCAGUUUUCUCCAAGCUGUGUCCUGUGAAUUUCAACCCU", "RBNS enrichment (R)": 0.565}
{"Strand": "UACCAUUGCUGUUGGGAGGAAGCAGAGGCAGAUGGGAAAGCAGAGAGAGGAGCGCGCUUCCUUUCCUCCCCGCUGCCGCCCACCCUGGGGAGAGACUUUUGCGGGGAGGG", "RBNS enrichment (R)": 0.843}
{"Strand": "CCACAGUUAAUUCCCGGCAGAUUCUUUGGCUGUGUUUUAUCUUUAAUGAACGUUUCUGACUAAUAUUUUGUUGUAAACCAUUAAGUAAUGUAACGCAUGUAAGAUGCUUA", "RBNS enrichment (R)": 1.54}
{"Strand": "AGUGAAAAAUAACUGAAGUUCAUGGUUUUUAAAAAAGGUGAUGAUUCCUUUUAUGCUAUCACACACUACUGUCACCGAGACACUGACAAAGUGCUGGGUUCUCCAAGAGC", "RBNS enrichment (R)": 0.482}
{"Strand": "UAUUAAGUGGUAAUACUUGAAAAGGAGCACUUAUACCAUAAGUCUUAGGAAAUAAUGUUUGUAAUAAACUUAACUAUGUUACAUAUCAACAGGCAAAAAUAUAGAAUGUU", "RBNS enrichment (R)": 0.567}
{"Strand": "UACUUGGACCCUCAGAUCUUCUUUUCUAAUAGCCAUUUGCCACCCCAAGUGGUAUGUCGGCCAUUUCUCCUUAAAACACCUUCCCUACCUUUCCCAUGUACUCAGUUUAG", "RBNS enrichment (R)": 0.437}
{"data": "Series 2", "target": "Interferon regulatory factor 7, full length, phosphomimetic (IRF7, Homo sapiens, UniProt Q92985, residues 1-503, S101K/S471D/S472D/S475D/S476D/S477D/S483D/S484D/S487D)", "technique": "protein-binding microarray", "molecule type": "double-stranded DNA, one strand shown", "matrix": "in vitro", "tested at": "250 nM", "setting": "60-bp whole probe", "together with": "salmon DNA 0.4 mg/ml", "baseline": "random background probes", "reading": "higher = stronger binding", "all sequences stand within": "GCCTAGCAC … GTCTTGATTCGCTTGACGCTGCTG", "Target sequence (chain)": "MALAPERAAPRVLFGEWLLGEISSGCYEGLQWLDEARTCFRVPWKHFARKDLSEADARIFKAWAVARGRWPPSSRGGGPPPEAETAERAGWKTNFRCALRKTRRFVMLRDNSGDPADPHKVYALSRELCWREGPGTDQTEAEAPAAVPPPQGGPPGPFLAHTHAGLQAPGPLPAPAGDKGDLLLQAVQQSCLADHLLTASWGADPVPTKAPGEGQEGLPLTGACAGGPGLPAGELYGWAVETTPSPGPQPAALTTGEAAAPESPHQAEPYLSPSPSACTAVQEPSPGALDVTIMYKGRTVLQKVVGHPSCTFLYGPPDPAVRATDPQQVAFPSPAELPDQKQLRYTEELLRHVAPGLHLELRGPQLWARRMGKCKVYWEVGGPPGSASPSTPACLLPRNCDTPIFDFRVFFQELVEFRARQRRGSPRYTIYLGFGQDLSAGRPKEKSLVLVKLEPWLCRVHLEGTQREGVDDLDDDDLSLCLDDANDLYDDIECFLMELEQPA"}
{"Strand": "TTAGATCTCAGAATGGATTAGTGCTAG", "log fluorescence": "0.0582 z-score"}
{"Strand": "TTAGGTATCCTTTTCCTTTCGTGCTAG", "log fluorescence": "2.22 z-score"}
{"Strand": "TCAAGAAAAAGAAAAAAAACTGTGCTA", "log fluorescence": "0.34 z-score"}
{"Strand": "TCAAAATTCTAATTAGAACTGTGCTAG", "log fluorescence": "0.167 z-score"}
{"Strand": "GACGGATTGGGGTTTCGGGACGTGCTA", "log fluorescence": "1.18 z-score"}
{"Strand": "GACGATTTCAGTTCCCAGACGTGCTAG", "log fluorescence": "0.982 z-score"}
{"Strand": "TCAAATTTATAAATAAAACTGTGCTAG", "log fluorescence": "0.241 z-score"}
{"Strand": "TCACAGATGTTTTTCATACTGTGCTAG", "log fluorescence": "0.184 z-score"}
{"Strand": "TTAGGACTGGGACGGGGTTAGTGCTAG", "log fluorescence": "0.132 z-score"}
{"Strand": "GACGGACTCGGTCTCGGGACGTGCTAG", "log fluorescence": "0.593 z-score"}
{"Strand": "TTAGGACTGGACCCTGGGTTAGTGCTA", "log fluorescence": "-0.377 z-score"}
{"Strand": "TTAGGTTCCCATTTCCTTTAGTGCTAG", "log fluorescence": "3.53 z-score"}
{"Strand": "TTAGGACTGCTTATACTTTAGTGCTAG", "log fluorescence": "-0.145 z-score"}
{"Strand": "GACGGTTTAGGTTCCGGGACGTGCTAG", "log fluorescence": "1.02 z-score"}
{"Strand": "TTAGGTTTCGACCATCGGTTAGTGCTA", "log fluorescence": "2.43 z-score"}
{"Strand": "AGTATGTTCACTATTTAAGGGTGCTAG", "log fluorescence": "0.231 z-score"}
{"Strand": "TCACATCTTGTTCCCAGACTGTGCTAG", "log fluorescence": "1.17 z-score"}
{"Strand": "GACGATTTAAGACTGGAGACGTGCTAG", "log fluorescence": "-0.122 z-score"}
{"Strand": "TTAGGACTGCTACTCCTTTAGTGCTAG", "log fluorescence": "-0.119 z-score"}
{"data": "Series 3", "target": "Histone acetyltransferase KAT6A, winged helix 2, GST fusion (KAT6A, Homo sapiens, UniProt Q92794, residues 85-181)", "technique": "protein binding microarray", "molecule type": "double-stranded DNA, one strand shown", "matrix": "in vitro", "tested at": "not given", "setting": "8-mer, flanks averaged, mean of 2 arrays, mostly near background", "baseline": "not given", "reading": "higher = stronger binding", "Target sequence (chain)": "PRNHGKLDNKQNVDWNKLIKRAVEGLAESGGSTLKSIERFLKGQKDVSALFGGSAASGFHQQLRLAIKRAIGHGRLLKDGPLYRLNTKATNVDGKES"}
{"Strand": "CGCAAGAA", "E-score": 0.22}
{"Strand": "ACCGCAGT", "E-score": 0.0145}
{"Strand": "GGCAGTCA", "E-score": 0.185}
{"Strand": "GGGCCGTA", "E-score": 0.133}
{"Strand": "AGGAAATA", "E-score": 0.0337}
{"Strand": "GTGCGGAA", "E-score": 0.086}
{"Strand": "ACTCACGA", "E-score": 0.0913}
{"Strand": "CGGAAGAG", "E-score": 0.0136}
{"Strand": "CAGAGAAG", "E-score": 0.0358}
{"Strand": "CCTTTAAA", "E-score": -0.106}
{"Strand": "CCTCCGAG", "E-score": 0.058}
{"Strand": "ACTTGGCT", "E-score": -0.166}
{"Strand": "GTGCGCAC", "E-score": 0.136}
{"Strand": "GGACAAAA", "E-score": 0.0263}
{"Strand": "GAGGTATC", "E-score": 0.0365}
{"Strand": "AGCTTTCA", "E-score": -0.0888}
{"Strand": "CATCTCAG", "E-score": -0.101}
{"data": "Series 4", "target": "Max dimerization protein 1, bHLH-zipper, MAX partner unstated (MXD1, Homo sapiens, UniProt Q05195, residues 56-136)", "technique": "protein-binding microarray", "molecule type": "double-stranded DNA, one strand shown", "matrix": "in vitro", "tested at": "not given", "setting": "k-mer, scored over probes, only values ≥0.25", "reading": "higher = stronger binding", "Construct (chain)": "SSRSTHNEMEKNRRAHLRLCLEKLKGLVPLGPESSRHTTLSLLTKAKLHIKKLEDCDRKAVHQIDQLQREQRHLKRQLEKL"}
{"Strand": "ACATGGAA", "E-score": 0.354}
{"Strand": "CGTGGGAG", "E-score": 0.326}
{"Strand": "CATGAGTA", "E-score": 0.271}
{"Strand": "GCACGTTA", "E-score": 0.331}
{"Strand": "CGCAACAA", "E-score": 0.262}
{"Strand": "CGTGTTTA", "E-score": 0.324}
{"Strand": "CACGCCCG", "E-score": 0.291}
{"Strand": "ACATGATG", "E-score": 0.282}
{"Strand": "CGTGCTGC", "E-score": 0.284}
{"Strand": "GCCACACC", "E-score": 0.262}
{"Strand": "CCCCCGCA", "E-score": 0.342}
{"Strand": "CATGCGCC", "E-score": 0.417}
{"Strand": "GTGGCACA", "E-score": 0.257}
{"Strand": "CGTGGTCC", "E-score": 0.37}
{"Strand": "CCCCACTC", "E-score": 0.257}
{"Strand": "GCACGTGA", "E-score": 0.477}
{"data": "Series 5", "target": "Centromere-binding protein 1, full length, His-tagged (CBF1, Saccharomyces cerevisiae, UniProt P17106, residues 1-351)", "technique": "competition protein-binding microarray", "molecule type": "double-stranded DNA, one strand shown", "matrix": "in vitro", "tested at": "2 µM", "setting": "whole 60-bp probe, lowest competitor level", "together with": "Pho4 competitor, 0.05 µM", "reading": "higher = stronger binding", "all sequences stand within": "… GTCTTGATTCGCTTGACGCTGCTG", "sequence of UniProt P17106 (whole entry, looked up)": "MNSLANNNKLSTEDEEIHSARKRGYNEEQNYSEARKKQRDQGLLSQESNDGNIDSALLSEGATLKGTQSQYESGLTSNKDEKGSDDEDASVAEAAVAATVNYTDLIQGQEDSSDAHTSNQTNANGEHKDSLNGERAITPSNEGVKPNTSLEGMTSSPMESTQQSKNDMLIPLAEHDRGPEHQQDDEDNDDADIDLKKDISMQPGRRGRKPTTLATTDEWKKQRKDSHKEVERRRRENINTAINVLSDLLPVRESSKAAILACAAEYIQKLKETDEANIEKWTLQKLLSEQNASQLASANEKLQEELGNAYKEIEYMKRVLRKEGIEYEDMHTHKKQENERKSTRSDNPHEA"}
{"Strand": "CGTTGTCGATTTTCACACGTGCAAACAATGAGGTTG", "fluorescence intensity [a.u.]": 1810}
{"Strand": "AAAGCGGTAATTTGTCACGTGGGTGCAGATATCTAT", "fluorescence intensity [a.u.]": 8060}
{"Strand": "GATCAGTTTTCCACATCCGTGATGGGGCGCAAATTA", "fluorescence intensity [a.u.]": 212}
{"Strand": "CATACCCAACCTTGTCACAAAACTTAAGATATTTGT", "fluorescence intensity [a.u.]": 86.6}
{"Strand": "TGCGCAACAACTTTTCACGTGGGGTTATGTCTAGAA", "fluorescence intensity [a.u.]": 726}
{"Strand": "AAATTACTAAGTTGTCACTTCACTTACCCCGTATGA", "fluorescence intensity [a.u.]": 79.5}
{"Strand": "TGACATTGCTCGAGTCACGTTCAGAAAACGAGAAGA", "fluorescence intensity [a.u.]": 436}
{"Strand": "CTTCTGTAAATTTTTCACGTGCGGTGAAGCGCCCCG", "fluorescence intensity [a.u.]": 813}
{"Strand": "CTGGTAAGTTTTTGGCCTGTGCGGGTTCATAAGGGA", "fluorescence intensity [a.u.]": 65.5}
{"Strand": "CTTCTGTAAATTTGTGGCGTGGGTGGACGCGCCCCG", "fluorescence intensity [a.u.]": 77.9}
{"Strand": "CGTCCTAGTGATTGCATGGTGGGTGCCATGAGGAAG", "fluorescence intensity [a.u.]": 85.6}
{"Strand": "TGCGCAACAACTTTTCACGTGTAGTTATGTCTAGAA", "fluorescence intensity [a.u.]": 662}
{"Strand": "GTCTTGTCTCATTTTCACGTGGTCTTCCCCACTTCA", "fluorescence intensity [a.u.]": 977}
{"Strand": "GTAACTGATGAGTACCATGTGTTTAACGATCTTGAG", "fluorescence intensity [a.u.]": 101}
{"Strand": "CTACATATGTGCAAGCAGGTGACGCTTTACCCTTGA", "fluorescence intensity [a.u.]": 180}
{"Strand": "CGGGGTTAAGTTTTTCACGTGTATTGCTTGCAGCAG", "fluorescence intensity [a.u.]": 702}
{"Strand": "AAAGCGGTAATTTTTCACGTGACATCACATATCTAT", "fluorescence intensity [a.u.]": 5910}
{"Strand": "TTCTCTTCCGATATGACCGTGCTTTTAGCTGTTAGC", "fluorescence intensity [a.u.]": 83.7}
{"Strand": "TCATATTTGACGAGTCACGTTTCTTACAATGTCTAC", "fluorescence intensity [a.u.]": 1280}
{"note": "Repeated from above (series 3):"}
{"Strand": "CGCAAGAA", "E-score": 0.22}
{"Strand": "GGGCCGTA", "E-score": 0.133}
{"Strand": "ACCGCAGT", "E-score": 0.0145}
{"Strand": "CGGAAGAG", "E-score": 0.0136}
{"Strand": "AGGAAATA", "E-score": 0.0337}
